Experimental data gathered from unrelated publications.
“And” joins repeats or separate records; there may be more than shown. ± gives the spread as reported.

CCOc1ccccc1-n1c(CN2CCNCC2)nc2ccccc2c1=O  Cmax (C57BL/6 mouse, male, plasma; oral, 6 mg/kg): 1390 nM
COc1cccc2c1C(=O)c1c(O)c3c(c(O)c1C2=O)CC(O)(C(=O)CO)CC3OC1CC(NC(=O)OC2C=CCCC(C)(C(=O)NCC(=O)O)CC2)C(O)C(C)O1 (centres unmarked)  Cmax (male Sprague Dawley rat, plasma; intravenous, 21.5 mg/kg/day doxorubicin equivalents, average over days): 2140 ng/mL
CN[C@H](CC(C)C)C(=O)N[C@H]1C(=O)N[C@@H](CC(N)=O)C(=O)N[C@H]2C(=N)N[C@H]3C(=O)N[C@H](C(=O)N[C@H](C(=O)NCCCNC(=N)N)c4cc(O)cc(O)c4-c4cc3ccc4O)[C@H](O)c3ccc(c(Cl)c3)Oc3cc2cc(c3O[C@@H]2O[C@H](CO)[C@@H](O)[C@H](O)[C@H]2O[C@H]2C[C@](C)(NCc3ccc(-c4ccc(Cl)cc4)cc3)[C@H](O)[C@H](C)O2)Oc2ccc(cc2Cl)[C@H]1O  Cmax (mouse; intravenous, 10 mg/kg): 44000 ng/mL
CCCCCCCCCCCCCCCC(=O)N[C@@H](CCC(=O)NCCOCCOCCC(=O)NCCOCCOCCC(=O)NCCCC[C@H](NC(=O)[C@H](CC(=O)O)NC(=O)[C@H](CC(C)C)NC(=O)[C@H](Cc1ccc(O)cc1)NC(=O)[C@H](CCCCN)NC(=O)[C@H](CO)NC(=O)[C@H](Cc1ccc(O)cc1)NC(=O)[C@H](CC(=O)O)NC(=O)[C@H](CO)NC(=O)[C@@H](NC(=O)[C@H](Cc1ccccc1)NC(=O)[C@@H](NC(=O)CNC(=O)[C@H](CCC(N)=O)NC(=O)[C@@H](CO)NC(=O)[C@@H](N)Cc1c[nH]cn1)[C@@H](C)O)[C@@H](C)O)C(=O)N[C@@H](CCCNC(=N)N)C(=O)N[C@@H](CCCNC(=N)N)C(=O)N[C@@H](C)C(=O)N[C@@H](CCC(N)=O)C(=O)N[C@@H](CC(=O)O)C(=O)N[C@@H](Cc1ccccc1)C(=O)N[C@H](C(=O)N[C@@H](CCC(N)=O)C(=O)N[C@@H](Cc1c[nH]c2ccccc12)C(=O)N[C@@H](CC(C)C)C(=O)N[C@@H](CC(C)C)C(=O)N[C@@H](CC(N)=O)C(=O)N[C@H](C(=O)NCC(=O)NCC(=O)N1CCC[C@H]1C(=O)N[C@@H](CO)C(=O)N[C@@H](CO)C(=O)NCC(=O)N[C@@H](C)C(=O)N1CCC[C@H]1C(=O)N1CCC[C@H]1C(=O)N1CCC[C@H]1C(=O)N[C@@H](CO)C(N)=O)[C@@H](C)O)C(C)C)C(=O)O  Cmax (rhesus monkey, female, plasma; subcutaneous, 60 µg/kg, day 28, toxicokinetics, mean): 180 ng/mL
O=C(O)/C=C\c1ccc2occc2c1O[C@@H]1O[C@H](CO)[C@@H](O)[C@H](O)[C@H]1O  Cmax (rat, plasma; oral, 500 mg/kg Eu + 217 mg/kg Pc extract, dosed as combined Eu and Pc extracts): 136 ± 64.9 ng/mL
Cc1ccc(OCCN(C)C)cc1C(=O)N[C@H](C)c1cc(-c2cnn(C3CNC3)c2)nc2ccccc12  viability (Vero E6; 31.25 µM): 106% and 100%
COCC12CCC(OC)C34C5CC6(O)C(OC)C(O)C(O)(C5C6OC(=O)c5ccccc5)C(C(OC)C13)C4N(C)C2 (centres unmarked)  Cmax (Sprague-Dawley rat, plasma; oral, dose not given, with NADES in PCW extract): 191 ± 30.9 ng/mL
Cc1ccc(OCCN(C)C)cc1C(=O)N[C@H](C)c1cc(-c2ccc(C#N)nc2)nc2ccccc12  viability (Vero E6; 15.62 µM): 85.2% and 101%
CC[C@H](C)[C@H](NC(=O)[C@H](Cc1ccc(O)cc1)NC(=O)[C@@H](NC(=O)[C@H](CCCNC(=N)N)NC(=O)[C@@H](N)CC(=O)O)C(C)C)C(=O)N[C@@H](Cc1c[nH]cn1)C(=O)N1CCC[C@H]1C(=O)O  Cmax (LC-MS/MS; Beagle dog both sexes, plasma; subcutaneous, 10 mg/kg/day, day 27, noncompartmental): 953 ± 377 ng/mL
O=C1NC2(CC2)COc2ncc(F)cc2[C@H]2COCCN2c2ccn3ncc1c3n2  organ-to-body weight ratio (Sprague-Dawley rat, female, adrenals; oral, 2.5 mg/kg/day, 4 weeks dosing, end of recovery): 0.022 ± 0.002%
CC[C@H](C)[C@H](NC(=O)[C@H](CCCN)NC(=O)[C@H](CCCNC(=N)N)NC(=O)[C@@H]1CCCN1C(=O)[C@@H]1CCCN1C(=O)[C@H](CCCNC(=N)N)NC(=O)[C@@H]1CCCN1C(=O)[C@H](CCCNC(=N)N)NC(=O)[C@@H]1CCCN1C(=O)[C@H](CC(C)C)NC(=O)[C@H](Cc1ccc(O)cc1)NC(=O)[C@@H]1CCCN1C(=O)[C@@H]1CCCN1C(=O)[C@H](CCCCN)NC(=O)[C@H](CC(=O)O)NC(=O)[C@@H](N)C(C)C)C(=O)N[C@@H](Cc1ccc(O)cc1)C(=O)N[C@@H](CC(N)=O)C(=O)N[C@@H](CCCN)C(N)=O  Cmax (competitive ELISA; mouse CD-1, female, plasma; subcutaneous, 4.34 µmol/kg): 6700 ± 2000 ng/mL
Cc1cc(Nc2nc(C[C@@]3(C(=O)O)CCN(Cc4cccc(Cl)c4F)[C@H](C)C3)cc(C)c2F)n[nH]1  Cmax (mouse, IMR-32 xenograft, plasma; oral, 2.5 mg/kg once daily): 3940 ng/mL
O=C(c1cc(Cc2n[nH]c(=O)c3ccccc23)ccc1F)N1CC(CNC2CC2)C1  Cmax (female Wistar Han rat; oral, 15 mg/kg, day 28): 1020 ng/mL
C/C(=N\OCCCN1CCCCC1)c1ccc(C(F)(F)F)cc1  Cmax (mouse, plasma; oral, 100 mg/kg twice daily, day 7): 1330 ± 574 ng/mL

Repeated from above:
CN[C@H](CC(C)C)C(=O)N[C@H]1C(=O)N[C@@H](CC(N)=O)C(=O)N[C@H]2C(=N)N[C@H]3C(=O)N[C@H](C(=O)N[C@H](C(=O)NCCCNC(=N)N)c4cc(O)cc(O)c4-c4cc3ccc4O)[C@H](O)c3ccc(c(Cl)c3)Oc3cc2cc(c3O[C@@H]2O[C@H](CO)[C@@H](O)[C@H](O)[C@H]2O[C@H]2C[C@](C)(NCc3ccc(-c4ccc(Cl)cc4)cc3)[C@H](O)[C@H](C)O2)Oc2ccc(cc2Cl)[C@H]1O  Cmax (mouse; intravenous, 10 mg/kg): 44000 ng/mL
CCCCCCCCCCCCCCCC(=O)N[C@@H](CCC(=O)NCCOCCOCCC(=O)NCCOCCOCCC(=O)NCCCC[C@H](NC(=O)[C@H](CC(=O)O)NC(=O)[C@H](CC(C)C)NC(=O)[C@H](Cc1ccc(O)cc1)NC(=O)[C@H](CCCCN)NC(=O)[C@H](CO)NC(=O)[C@H](Cc1ccc(O)cc1)NC(=O)[C@H](CC(=O)O)NC(=O)[C@H](CO)NC(=O)[C@@H](NC(=O)[C@H](Cc1ccccc1)NC(=O)[C@@H](NC(=O)CNC(=O)[C@H](CCC(N)=O)NC(=O)[C@@H](CO)NC(=O)[C@@H](N)Cc1c[nH]cn1)[C@@H](C)O)[C@@H](C)O)C(=O)N[C@@H](CCCNC(=N)N)C(=O)N[C@@H](CCCNC(=N)N)C(=O)N[C@@H](C)C(=O)N[C@@H](CCC(N)=O)C(=O)N[C@@H](CC(=O)O)C(=O)N[C@@H](Cc1ccccc1)C(=O)N[C@H](C(=O)N[C@@H](CCC(N)=O)C(=O)N[C@@H](Cc1c[nH]c2ccccc12)C(=O)N[C@@H](CC(C)C)C(=O)N[C@@H](CC(C)C)C(=O)N[C@@H](CC(N)=O)C(=O)N[C@H](C(=O)NCC(=O)NCC(=O)N1CCC[C@H]1C(=O)N[C@@H](CO)C(=O)N[C@@H](CO)C(=O)NCC(=O)N[C@@H](C)C(=O)N1CCC[C@H]1C(=O)N1CCC[C@H]1C(=O)N1CCC[C@H]1C(=O)N[C@@H](CO)C(N)=O)[C@@H](C)O)C(C)C)C(=O)O  Cmax (rhesus monkey, female, plasma; subcutaneous, 60 µg/kg, day 28, toxicokinetics, mean): 180 ng/mL
